Measurements of several laboratories.
± gives the spread as reported.

O=C(Nc1cccc2[nH]ccc12)c1ccccc1  solubility (kinetic solubility; PBS with NaCl, SDS, ThT; pH 7.4): ≥ 300 µM
COC(=O)c1cccc(-c2cccc(Nc3nccc(NC4CCCCC4)n3)c2)c1  solubility (citrate phosphate-buffered saline; 18 h, pH 7.4, 1% DMSO): 0.4 ± 1.8 µM
CN1CCN(C(=O)c2ccccc2N(Cc2ccccc2)S(C)(=O)=O)CC1  solubility (aqueous buffer; pH 7.4): 1540 µg/mL
c1cncc(-c2cccc(Nc3nccc(NC4CCNCC4)n3)c2)c1  solubility (citrate phosphate-buffered saline; 18 h, pH 7.4, 1% DMSO): 68.4 ± 2 µM
CN(Cc1ccc(C(C)(C)C)cc1)Cc1cccc2ccccc12  solubility (PBS; 2 h, pH 7.4, 25 °C, 2% DMSO): 10 µM
Clc1cc(Cl)cc([C@H]2COC[C@@H](c3ccc(-n4cncn4)cc3)N2)c1  solubility (shake-flask, LC-HRMS; aqueous buffer; 16 h, pH 6.8): < 4 µM
CCCCCCCCCCCCCCCC(=O)NCCO  solubility (acetate buffer; 12 h, pH 4.5, 37 °C): < 16 µg/mL
Cn1cncc1[C@@](N)(c1ccc(Cl)cc1)c1ccc2c(c1)c(-c1cccc(Cl)c1)cc(=O)n2C  solubility (0.01 N HCl; final pH 2.79): 3390 ± 56.6 µg/mL
O=C(NC1(C(F)(F)F)CC1)c1ccccc1  solubility (PBS; pH 7.4, 25 °C, 2% DMSO): 393 µM
N#Cc1cc([C@@H]2COC[C@H](c3cc(Cl)cc(Cl)c3)N2)ccc1F  solubility (shake-flask, LC-HRMS; aqueous buffer; 16 h, pH 6.8): < 4 µM
COc1cc([N+](=O)[O-])ccc1NC(=O)CN1CCOCC1  solubility (aqueous buffer; pH 7.4): 4.66 µg/mL
Nc1nc2c(ncn2COCCO)c(=O)[nH]1  solubility (methanol + ethanol; 24 h, 298.2 K, mass fraction 0.7): 410 µg/mL
CC(C)(C)c1ccc(CN2CCN(C(c3ccccc3)c3ccc(Cl)cc3)CC2)cc1 (centres unmarked)  solubility (PBS; 2 h, pH 7.4, 25 °C): 3 µM
CC(C)(C)c1ccc([C@@H]2COC[C@@H](C3CCCCC3)N2)cc1  solubility (shake-flask, LC-HRMS; aqueous buffer; 16 h, pH 6.8): < 4 µM
CNC(=O)c1ccccc1Nc1cc(Nc2ccc(N3CCOCC3)cc2OC)ncc1C(F)(F)F  solubility (Tween 80; 24 h, 25 °C): ~100 µg/mL
CCc1nnc(Nc2ccnc3ccc(-c4ccc(S(=O)(=O)N5CCOCC5)cc4)cc23)s1  solubility (thermodynamic; aqueous medium): < 0.1 µM
CC(C)Nc1ccnc(Nc2ccccc2-c2ccccc2)n1  solubility (citrate phosphate-buffered saline; 18 h, pH 7.4, 1% DMSO): 26.5 ± 1.1 µM
N=C(N)NCCNC(=O)C1(Nc2ccccc2)CCN(Cc2ccccc2)CC1  solubility (water; hydrochloride salt): ≤ 16000 µg/mL
COc1cc(OC)c2c(=O)cc(-c3ccccc3)oc2c1  solubility (HPLC; ethanol:butylene glycol 100:0): 13700 ± 95 ppm
COC1=CC(c2ccc[nH]2)=N/C1=C\c1[nH]c(Cc2ccc(OC(F)(F)F)cc2)cc1Cc1ccc(OC(F)(F)F)cc1  solubility (potassium phosphate buffer; 1.5 h, pH 7.4, room temperature): < 3.13 µM
c1cncc(-c2cccc(Nc3nccc(NC4CCC4)n3)c2)c1  solubility (citrate phosphate-buffered saline; 18 h, pH 7.4, 1% DMSO): 7.6 ± 0.4 µM
CC(C)(C)C[C@@H]1COC[C@H](c2ccc(C(F)(F)F)cc2)N1  solubility (shake-flask, LC-HRMS; aqueous buffer; 16 h, pH 6.8): < 4 µM
O=C(Nc1cc(F)c(F)c(F)c1)c1ccc(F)c(S(=O)(=O)N2CCC(O)CC2)c1  solubility (phosphate buffer; pH 7.4): 39 µg/mL
NC(=O)N1c2ccccc2C=Cc2ccccc21  solubility (UV; DPBS; 18 h, room temperature): 92.5 ± 6.6 µM
O=C(Cc1ccc(OCCN2CCCC2)cc1)Nc1cc(C2CC2)[nH]n1  solubility (aqueous buffer; pH 7.4): > 2290 µg/mL
Cn1cc([C@@H]2COC[C@H](c3ccc(C#N)cc3)N2)cn1  solubility (shake-flask, LC-HRMS; aqueous buffer; 16 h, pH 6.8): > 750 µM
O=C(NCCN1CCCC1)c1cc(-c2ccc(CN3CCOCC3)cc2)nc2ccc(F)cc12  solubility (simulated gastric fluid; 4 h, pH 1.2, 37 °C, relative to free base): > 6490 µM
O=S(=O)(NCc1ccccn1)c1cc(Cl)c(Cl)cc1Cl  solubility (aqueous buffer; pH 7.4): < 3.77 µg/mL
COc1cc(OC)c2c(=O)c(OC)c(-c3ccccc3)oc2c1  solubility (HPLC; ethanol:butylene glycol 25:75): 2306 ± 2.7 ppm
Cc1cc(Nc2ccnc3ccc(-c4ccc(S(=O)(=O)N5CCOCC5)cc4)cc23)sn1  solubility (thermodynamic; aqueous medium): < 1 µM
COc1ccc(-c2cc(=O)c3c(OC)cc(OC)cc3o2)cc1  solubility (HPLC; ethanol:butylene glycol 25:75): 12514 ± 11 ppm
C[C@H](Nc1ccnc(Nc2cccc(-c3cccnc3)c2)n1)C(=O)O  solubility (citrate phosphate-buffered saline; 18 h, pH 7.4, 1% DMSO): 61.9 ± 2.2 µM
Cc1[nH]c(/C=C2\N=C(c3ccc[nH]3)C3=C2OCCO3)cc1Cc1ccc(Cl)cc1.Cl  solubility (potassium phosphate buffer; 1.5 h, pH 7.4, room temperature): 23.1 µM
COc1cccc([C@@H]2COC[C@]3(CCOC3)N2)c1  solubility (shake-flask, LC-HRMS; aqueous buffer; 16 h, pH 6.8): > 750 µM
COC(=O)c1ccc(NC(=O)CSc2nnc(-c3ccc(NC(C)=O)cc3)n2C)cc1  solubility (aqueous buffer; pH 7.4): < 2.35 µg/mL
Cc1cc(/C=C/C#N)cc(C)c1Nc1ccnc(Nc2ccc(C#N)cc2)n1  solubility (Labrasol ALF; 24 h, 37 °C): 9020 ± 290 µg/mL
Cc1cc(C)c(S(=O)(=O)NCc2ccccn2)cc1C  solubility (aqueous buffer; pH 7.4): 15.7 µg/mL
O=C1CCC(N2Cc3cc(NC(=O)C4=Cc5cc(Br)cc(Br)c5OC4)ccc3C2=O)C(=O)N1 (centres unmarked)  solubility (DMSO): ≤ 25000 µM
NC[C@H](NC(=O)[C@@H](CCCCNC(=O)CN1CCN(CC(=O)O)CCN(CC(=O)O)CCN(CC(=O)O)CC1)NC(=O)[C@@H](Cc1c[nH]c2ccccc12)NC(=O)OCC1c2ccccc2-c2ccccc21)C(N)=O  solubility (aqueous buffer): ≥ 5000 µM
C[C@@H](O)[C@H](NC(=O)c1ccc(-c2ccc(Br)cc2)cc1)C(=O)NCC1(C)NC(=O)NC1=O (some centres unmarked)  solubility (aqueous buffer; pH 7.4): 130 µg/mL
O=S(=O)(c1ccc(-c2ccc3ncccc3c2)cc1)N1CCOCC1  solubility (thermodynamic; aqueous medium): 18 µM
N=C(N)NS(=O)(=O)c1ccc(N/C=C2\C(=O)Nc3ccccc32)cc1  solubility (aqueous buffer; pH 7.4): < 1.53 µg/mL
O=S(=O)(c1ccc(-c2ccc3nccc(Nc4ccnnc4)c3c2)cc1)N1CCOCC1  solubility (thermodynamic; aqueous medium): 661 µM
c1ccc(-c2ccc([C@H]3COC[C@@H](C4CCC4)N3)cc2)cc1  solubility (shake-flask, LC-HRMS; aqueous buffer; 16 h, pH 6.8): < 4 µM
Clc1nc(SCc2ccccc2)c2[nH]cnc2n1  solubility (UV absorbance; culture medium; stock diluted to 0.40 mM): 50 µM
COc1cc(C(=O)[O-])cc(COC(=O)N(C)C(=O)c2ccc(N3C(=S)N(c4ccc(C#N)c(C(F)(F)F)c4)C(=O)C3(C)C)cc2F)c1OP(=O)([O-])[O-].[Na+].[Na+].[Na+]  solubility (HPLC, saturated solution; HBSS; 30 s, pH 6.5): > 49000 µg/mL
CCOC(=O)N1C[C@@H](C2CCCCC2)N[C@@H](c2ccc(C(C)(C)C)cc2)C1  solubility (shake-flask, LC-HRMS; aqueous buffer; 16 h, pH 6.8): < 4 µM
COc1ccc(-n2nc(C(=O)NC(=O)OCc3cc(C(=O)O)ccc3OP(=O)(O)O)c3c2C(=O)N(c2ccc(N4CCCCC4=O)cc2)CC3)cc1  solubility (HPLC, saturated solution; simulated gastric fluid; 30 s, pH 1.2): 240 µg/mL
O=C(Nc1ccc(OC(F)(F)F)cc1)N[C@H]1CC[C@H](Oc2ccc(C(=O)O)cc2)CC1  solubility (deionised water; 15 min, pH 6.6, 37 °C, non-sink dissolution): 0.439 µg/mL
c1ccc(CSc2ncnc3nc[nH]c23)cc1  solubility (UV absorbance; culture medium; stock diluted to 0.20 mM): 138 µM

Repeated from above:
C[C@@H](O)[C@H](NC(=O)c1ccc(-c2ccc(Br)cc2)cc1)C(=O)NCC1(C)NC(=O)NC1=O (some centres unmarked)  solubility (aqueous buffer; pH 7.4): 130 µg/mL
c1cncc(-c2cccc(Nc3nccc(NC4CCC4)n3)c2)c1  solubility (citrate phosphate-buffered saline; 18 h, pH 7.4, 1% DMSO): 7.6 ± 0.4 µM
CCc1nnc(Nc2ccnc3ccc(-c4ccc(S(=O)(=O)N5CCOCC5)cc4)cc23)s1  solubility (thermodynamic; aqueous medium): < 0.1 µM
CN1CCN(C(=O)c2ccccc2N(Cc2ccccc2)S(C)(=O)=O)CC1  solubility (aqueous buffer; pH 7.4): 1540 µg/mL
